# Published values gathered from unrelated publications.
# Parts stem from different laboratories: compare values within a part only. Positions count from the first letter of the parent shown.

# Study 1 — method: DHFR PCA, deep sequencing; matrix: yeast; added: (+)-ABA 710 µM; reference: wild-type fitted maximum; direction: higher = stronger binding
# Target: ABI1, truncated, D143A, DHFR fusion (Arabidopsis thaliana)
# Setting: methotrexate growth selection, single substitutions
# Parent: PYL1, truncated, DHFR fusion (Arabidopsis thaliana); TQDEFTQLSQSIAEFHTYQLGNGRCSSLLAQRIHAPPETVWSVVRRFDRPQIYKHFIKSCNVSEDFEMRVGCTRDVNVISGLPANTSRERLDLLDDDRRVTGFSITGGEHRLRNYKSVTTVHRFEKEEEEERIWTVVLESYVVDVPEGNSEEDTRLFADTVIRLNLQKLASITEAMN; partner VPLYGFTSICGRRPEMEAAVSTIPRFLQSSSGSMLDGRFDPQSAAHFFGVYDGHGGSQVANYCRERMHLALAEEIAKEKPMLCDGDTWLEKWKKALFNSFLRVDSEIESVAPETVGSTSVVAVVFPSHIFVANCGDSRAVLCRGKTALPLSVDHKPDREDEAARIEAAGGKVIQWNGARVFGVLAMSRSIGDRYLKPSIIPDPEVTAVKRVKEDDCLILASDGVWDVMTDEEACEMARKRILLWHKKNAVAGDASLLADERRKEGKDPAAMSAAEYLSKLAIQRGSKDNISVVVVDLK
Variant,relative binding score
R111K,96.4%
L20M,98.5%
R32I,95.6%
R132E,122%
E64N,101%
S80Q,75.3%
K168P,6.57%
R45L,5.32%
E151I,100%
Y18Q,97.1%
Q2V,110%
P37I,96.3%
I52C,109%
V161C,89.3%
H55I,101%
N114F,50.4%
V76D,-9.08%

# Study 2 — target: ATF1, bZIP domain (human); method: DHFR protein complementation; matrix: yeast; reference: wild-type JUN-FOS pair; direction: higher = stronger binding
# Setting: single substitutions, most at no-binding floor
# Parent: JUN, bZIP domain (human); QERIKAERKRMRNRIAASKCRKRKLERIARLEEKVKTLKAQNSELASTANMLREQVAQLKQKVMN; partner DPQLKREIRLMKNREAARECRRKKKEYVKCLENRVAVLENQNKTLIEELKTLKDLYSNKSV
Variant,binding fitness [natural log]
Q55P,-1.5
L59W,-1.59
L38Y,-1.47
N42T,-1.55
L31W,-1.49
T37G,-1.5
R30T,-1.51
L31H,-1.53
L31A,-1.49
E54L,-1.52
K39C,-1.56
L38R,-1.56
R53V,-1.42
S43N,-1.58
R53L,-1.53
T48E,-1.43
R30H,-1.22
S43A,-1.44

# Study 3 — method: RNA Bind-n-Seq; form: RNA; matrix: in vitro; tested at: 100 nM; reference: input RNA pool; direction: higher = stronger binding
# Target: RING finger protein unkempt homolog, zinc fingers 1-6, SBP tag (UNK, Homo sapiens, UniProt Q9C0B0, residues 30-357)
# UniProt Q9C0B0, sequence (30-357, looked up): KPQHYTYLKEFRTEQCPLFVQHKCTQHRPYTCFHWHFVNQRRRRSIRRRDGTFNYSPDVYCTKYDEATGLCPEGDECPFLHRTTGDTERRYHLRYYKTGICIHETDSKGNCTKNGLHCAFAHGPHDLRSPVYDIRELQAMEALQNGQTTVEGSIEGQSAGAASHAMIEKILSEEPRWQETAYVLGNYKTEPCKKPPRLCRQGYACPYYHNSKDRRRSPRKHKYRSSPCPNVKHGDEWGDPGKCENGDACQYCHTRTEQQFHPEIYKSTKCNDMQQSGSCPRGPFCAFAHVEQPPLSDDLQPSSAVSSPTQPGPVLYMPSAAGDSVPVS
# Setting: RNA with constant flanks, vertebrate orthologous sites, ends assumed
Oligonucleotide,bound/input enrichment [ratio]
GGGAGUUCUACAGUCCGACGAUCACGCUUUGAUAUAAAGAUUGAGAUUAAGAGCUGAUGAUUGCAGCCGCAAGCUGCGCCUUCUCUGCCACCUCCCCCAUUUCAAAAACCAACAAAAAAAAUUUAAAAAAAAAUUAAACACAACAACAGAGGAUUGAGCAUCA,0.355
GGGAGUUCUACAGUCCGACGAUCAAGAACUCUUGCAGUCUUAGAUGUUAUAAAAAAUAUAUAUAUCUGAAUUGUAAGAGUUGUUAGCACAGGUUUUUUUCUUUUUUUUUUAAAGCACUUGUUUUGGGUACAAGGCAUGUCUGACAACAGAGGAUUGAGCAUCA,0.365
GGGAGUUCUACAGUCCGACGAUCUGCAUUAUUUGACCAGAGUGGAGGUGACAGAGUUUGAAGACAUCAAAUCAGGUUACAGAAUAGAUUUUUAUUUUGAUGAGAAUCCAUAUUUUGAAAAUAAAGUUCUCUCCAAAGAGUUUCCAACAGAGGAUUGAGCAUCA,0.667
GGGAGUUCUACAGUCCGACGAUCUUCAUUAUCUGAGCCGAGUGGAAGUGACAGAGUUUGAAGACAUCAAGUCGGGUUACAGAAUAGAUUUUUACUGUUGUUUGAGAUGUCUGAGAAGAGCUUUUUUUUAUCUUUGAUACUUACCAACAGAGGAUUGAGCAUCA,0.523
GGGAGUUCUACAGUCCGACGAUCACAUAGAAUAUUGGGUGAGCGCAUAAAUUAUCCAAGGCAGUGACUUCAGCUUUAUAUAUAUUGUUAGUUUUAAAGUCACCUCCUUUUAUUUAAACUCCUAGAUCGGAUUGUUUGCUAUUUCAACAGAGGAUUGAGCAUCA,1.14
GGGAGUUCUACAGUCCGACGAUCGUAGUUUGUUUUUAAUUUCAAGCAAAAAAUCUUAUUGUACUUGAAUGUGUCCUGUUUUGUUAGCACACAUAGACUUGCUGUAACUGUACUCAUGUCCCAGUAUGUAUGUUCUUUCUAUGACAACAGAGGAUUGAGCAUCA,0.905
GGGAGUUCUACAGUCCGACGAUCAAAUAUACUUCAUGCCAUGGACUCCAUACCGUACCGAUACUUUGAUAGAAUACGCUUCUUUAGAGGACUUCCAAAAUGGACGGCAACAGACGACAUAUAAGCUUCCAAAUCGAGUGGAUGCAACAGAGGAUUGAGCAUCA,0.793
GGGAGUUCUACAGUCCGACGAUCAUCAUCUGACUGGAUGAAGACCGUCCCAAGUUACAACCAAACAAAUAGCUCCAUGGACUUUAGAAAUUACAUGAUGAGAGAUGAGAAUCUGGAACCACUGCCCAAAAACUGGGAAAUGGCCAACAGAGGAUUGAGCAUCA,0.484

# Study 4 — target: CCNB2, cyclin fold, Cln2 fusion (human); method: yeast growth competition, sequencing; matrix: yeast; setting: weak parent motif; reference: not given; direction: higher = stronger binding
# Parent: CCP110 docking peptide (human); EKVKRRLDLDIDG; partner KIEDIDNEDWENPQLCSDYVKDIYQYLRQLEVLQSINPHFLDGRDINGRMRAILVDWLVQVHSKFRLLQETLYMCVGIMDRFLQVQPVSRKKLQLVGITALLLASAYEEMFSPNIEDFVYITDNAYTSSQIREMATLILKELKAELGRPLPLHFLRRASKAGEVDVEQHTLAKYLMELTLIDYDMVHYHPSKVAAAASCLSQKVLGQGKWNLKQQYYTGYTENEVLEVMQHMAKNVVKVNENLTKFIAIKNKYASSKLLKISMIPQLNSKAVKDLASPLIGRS
Variant,normalised enrichment score
EKVKRRLDADIDG [L9A],-0.00655
EKVKKRLDLDIDG [R5K],0.0363
EKVKRRLALDIDG [D8A],0.331
EAVKRRLDLDIDG [K2A],0.59
EKVKRRLDLDIDA [G13A],0.323
EKVKRRADLDIDG [L7A],-0.158
EKVKRRLDLDADG [I11A],0.116
EKVKRRLDLAIDG [D10A],0.467
EKVKRRLDFDIDG [L9F],3.37

# Study 5 — method: universal PBM; form: double-stranded DNA, one strand shown; matrix: in vitro; tested at: 600 nM; direction: higher = stronger binding
# Target: Sal-like protein 4, full length isoform A (SALL4, Homo sapiens, UniProt Q9UJQ4, residues 1-1053)
# UniProt Q9UJQ4, sequence (whole entry, looked up): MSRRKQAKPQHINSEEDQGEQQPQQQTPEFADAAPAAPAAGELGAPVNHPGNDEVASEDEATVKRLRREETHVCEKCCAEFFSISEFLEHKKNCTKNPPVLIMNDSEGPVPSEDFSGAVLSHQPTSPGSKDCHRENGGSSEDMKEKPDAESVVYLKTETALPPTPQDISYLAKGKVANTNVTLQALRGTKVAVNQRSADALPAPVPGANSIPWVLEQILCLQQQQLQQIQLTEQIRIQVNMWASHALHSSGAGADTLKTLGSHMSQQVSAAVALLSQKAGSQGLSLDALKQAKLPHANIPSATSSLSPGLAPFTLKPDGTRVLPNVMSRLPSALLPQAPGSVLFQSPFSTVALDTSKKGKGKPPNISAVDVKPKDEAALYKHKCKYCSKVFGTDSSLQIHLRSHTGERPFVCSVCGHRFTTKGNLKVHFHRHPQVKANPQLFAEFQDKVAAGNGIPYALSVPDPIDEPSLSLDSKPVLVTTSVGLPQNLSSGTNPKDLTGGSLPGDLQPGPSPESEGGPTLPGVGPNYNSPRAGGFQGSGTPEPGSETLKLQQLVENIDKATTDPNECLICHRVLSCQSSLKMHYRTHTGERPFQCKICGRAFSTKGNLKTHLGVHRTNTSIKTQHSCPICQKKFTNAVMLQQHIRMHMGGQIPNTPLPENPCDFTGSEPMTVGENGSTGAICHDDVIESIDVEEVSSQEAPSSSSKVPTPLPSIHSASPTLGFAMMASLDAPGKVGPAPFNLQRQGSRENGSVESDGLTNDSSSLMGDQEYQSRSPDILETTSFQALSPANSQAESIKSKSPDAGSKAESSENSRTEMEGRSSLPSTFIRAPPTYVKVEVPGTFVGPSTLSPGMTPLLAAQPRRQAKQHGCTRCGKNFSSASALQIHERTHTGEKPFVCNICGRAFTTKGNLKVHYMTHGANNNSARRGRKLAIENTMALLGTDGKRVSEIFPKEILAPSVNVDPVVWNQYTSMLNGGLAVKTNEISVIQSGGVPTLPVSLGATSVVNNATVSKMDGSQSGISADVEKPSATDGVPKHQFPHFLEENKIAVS
# Setting: 8-mer, flanks averaged, mean of replicates
Oligonucleotide,E-score
ATGCGACG,-0.11
CAGTTAAC,-0.0965
AACGGAGA,-0.0121
GTGGGCTA,-0.0658
CTCGCGGA,-0.237
ACAGATAC,0.138
ACAGTGCC,-0.216
TCCGTCCA,-0.0619
AGGGGTCG,-0.271
AGCTCCTC,-0.207
CGTACTTA,0.103
GCGTGCAC,-0.175
ACGAGATC,-0.057
AAGAATTA,0.262
CCTAAGGC,-0.314
GCGAGTAC,-0.0147
TCGTTCCA,0.103
ACCGGCAG,-0.296
ACAGGAAT,0.148
ACAAGAGG,-0.102

# Mixed results
Substance,target,test,test system,conditions,how to read,quantity,result
"PhoQ, residues 284 288 289 292 302 303 ASASEQ","PhoP, residues 12 14 15 18 19 NQCAL (Escherichia coli, UniProt P23836)","Sort-seq, measured: YFP reporter",E. coli,"PhoQ-PhoP variant library, added: 10 µM Mg2+","reference: high Mg2+ state, higher = stronger signaling",fold induction,21.5

# For quick reference, copied from above (study 2):
Variant,binding fitness [natural log]
R53L,-1.53
S43N,-1.58
L38R,-1.56
Q55P,-1.5
K39C,-1.56
L38Y,-1.47
L31W,-1.49
